Measurements collected from several papers.
Lines come from different studies, so protocols differ.

CCNc1n[n+]([O-])c2cc3c(cc2[n+]1[O-])CCC3 — MIC (Mycobacterium tuberculosis; ATCC 35822, isoniazid-resistant; 168 h): 2.5 µg/mL
YLIALAVCQV — relative binding concentration (HLA-A2; flow cytometry; peptide, T2 cells; concentration not given; baseline: cpd over flu peptide): 10 to 16 fold
O=C(OCc1ccccc1)c1coc(-c2ccccc2)n1 — MIC (Mycobacterium tuberculosis; clinical, drug-sensitive, MDR and XDR): 1 to 9 µM
Clc1ccc(-c2cc(CNC34CC5CC(CC(C5)C3)C4)no2)s1 — EC50 (Influenza A virus; viral replication, plaque; A/Switzerland/9715293/2013 (H3N2), amantadine-resistant): 100 to 200 nM
O=C(OCc1ccccc1)c1csc(-c2ccccc2)n1 — MIC (Mycobacterium tuberculosis; clinical, drug-sensitive, MDR and XDR): 4 to 34 µM
O=C(NC1CCCCCCC1)c1ccc2ccccc2c1 — MIC (Mycobacterium tuberculosis; microbial growth, resazurin; H37RV): 6.55 µM

For quick reference, copied from above:
Clc1ccc(-c2cc(CNC34CC5CC(CC(C5)C3)C4)no2)s1 — EC50 (Influenza A virus; viral replication, plaque; A/Switzerland/9715293/2013 (H3N2), amantadine-resistant): 100 to 200 nM
